Assay results gathered from unrelated publications.
Each numbered part is a random draw from the data of one study; scales do not carry over between parts. Values joined by “and” are separate records of one study, mostly repeats; a detail may differ.
UniProt Q14012, sequence (whole entry, looked up): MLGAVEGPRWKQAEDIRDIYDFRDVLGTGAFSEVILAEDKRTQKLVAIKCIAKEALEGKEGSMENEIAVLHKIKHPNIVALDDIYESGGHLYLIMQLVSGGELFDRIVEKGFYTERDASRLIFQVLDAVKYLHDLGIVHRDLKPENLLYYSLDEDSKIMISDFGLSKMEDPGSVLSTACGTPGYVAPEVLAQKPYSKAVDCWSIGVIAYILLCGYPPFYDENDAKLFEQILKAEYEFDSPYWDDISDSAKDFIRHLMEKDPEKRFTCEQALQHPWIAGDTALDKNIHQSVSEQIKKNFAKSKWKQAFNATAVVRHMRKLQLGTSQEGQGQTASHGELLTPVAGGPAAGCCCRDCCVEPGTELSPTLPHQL
UniProt P42684, sequence (whole entry, looked up): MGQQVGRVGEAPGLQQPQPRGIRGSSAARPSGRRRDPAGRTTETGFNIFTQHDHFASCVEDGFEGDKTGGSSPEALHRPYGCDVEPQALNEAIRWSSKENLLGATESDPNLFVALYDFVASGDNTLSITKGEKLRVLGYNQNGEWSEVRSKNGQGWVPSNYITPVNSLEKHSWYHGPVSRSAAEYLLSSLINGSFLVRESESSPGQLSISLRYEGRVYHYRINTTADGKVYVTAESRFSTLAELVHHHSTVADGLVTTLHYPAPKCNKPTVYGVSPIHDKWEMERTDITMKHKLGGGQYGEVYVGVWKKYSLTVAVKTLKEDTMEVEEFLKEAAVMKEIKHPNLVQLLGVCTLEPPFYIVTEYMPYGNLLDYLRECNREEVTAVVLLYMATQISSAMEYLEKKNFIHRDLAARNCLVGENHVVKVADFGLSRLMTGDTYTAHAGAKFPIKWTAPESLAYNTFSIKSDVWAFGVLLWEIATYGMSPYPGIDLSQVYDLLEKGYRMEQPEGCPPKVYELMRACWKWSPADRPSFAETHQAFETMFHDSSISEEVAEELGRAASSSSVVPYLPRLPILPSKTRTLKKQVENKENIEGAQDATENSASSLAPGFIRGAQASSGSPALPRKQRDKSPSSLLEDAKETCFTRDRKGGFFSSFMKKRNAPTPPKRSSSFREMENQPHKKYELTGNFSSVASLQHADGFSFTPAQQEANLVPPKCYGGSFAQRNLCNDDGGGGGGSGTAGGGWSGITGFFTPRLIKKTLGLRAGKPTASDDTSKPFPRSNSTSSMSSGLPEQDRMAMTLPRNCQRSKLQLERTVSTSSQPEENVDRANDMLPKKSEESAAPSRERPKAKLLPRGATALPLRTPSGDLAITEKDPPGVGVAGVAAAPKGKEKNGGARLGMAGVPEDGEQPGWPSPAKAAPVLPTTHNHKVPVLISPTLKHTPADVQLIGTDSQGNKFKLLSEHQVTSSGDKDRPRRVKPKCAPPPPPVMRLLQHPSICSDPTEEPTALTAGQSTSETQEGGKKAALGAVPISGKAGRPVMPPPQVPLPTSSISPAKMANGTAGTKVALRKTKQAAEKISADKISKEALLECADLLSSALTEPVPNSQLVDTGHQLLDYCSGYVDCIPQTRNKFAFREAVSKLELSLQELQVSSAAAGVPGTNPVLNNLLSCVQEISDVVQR
UniProt Q8NEB9, sequence (whole entry, looked up): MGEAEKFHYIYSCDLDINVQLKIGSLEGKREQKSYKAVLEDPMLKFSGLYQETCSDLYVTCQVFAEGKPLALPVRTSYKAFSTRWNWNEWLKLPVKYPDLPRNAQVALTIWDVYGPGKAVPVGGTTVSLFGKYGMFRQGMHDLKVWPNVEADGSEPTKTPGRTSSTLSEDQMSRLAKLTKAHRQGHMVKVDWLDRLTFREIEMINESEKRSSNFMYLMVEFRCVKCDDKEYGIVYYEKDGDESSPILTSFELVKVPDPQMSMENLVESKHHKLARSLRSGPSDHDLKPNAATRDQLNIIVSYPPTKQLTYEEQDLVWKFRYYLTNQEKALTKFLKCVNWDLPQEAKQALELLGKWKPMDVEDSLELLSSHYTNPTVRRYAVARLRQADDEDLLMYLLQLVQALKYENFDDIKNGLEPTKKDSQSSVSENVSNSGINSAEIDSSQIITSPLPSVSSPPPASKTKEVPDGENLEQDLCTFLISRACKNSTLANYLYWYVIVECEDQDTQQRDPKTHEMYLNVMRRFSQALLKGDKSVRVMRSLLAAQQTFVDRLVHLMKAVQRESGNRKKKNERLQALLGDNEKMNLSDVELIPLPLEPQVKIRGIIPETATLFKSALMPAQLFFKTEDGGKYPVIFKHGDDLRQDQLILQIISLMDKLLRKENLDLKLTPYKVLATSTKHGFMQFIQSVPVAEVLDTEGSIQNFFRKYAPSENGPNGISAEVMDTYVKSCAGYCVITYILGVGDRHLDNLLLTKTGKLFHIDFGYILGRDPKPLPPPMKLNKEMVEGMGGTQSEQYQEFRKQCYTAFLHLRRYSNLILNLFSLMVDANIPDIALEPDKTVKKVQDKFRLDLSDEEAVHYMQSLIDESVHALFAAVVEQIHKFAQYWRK
UniProt Q9Y616, sequence (whole entry, looked up): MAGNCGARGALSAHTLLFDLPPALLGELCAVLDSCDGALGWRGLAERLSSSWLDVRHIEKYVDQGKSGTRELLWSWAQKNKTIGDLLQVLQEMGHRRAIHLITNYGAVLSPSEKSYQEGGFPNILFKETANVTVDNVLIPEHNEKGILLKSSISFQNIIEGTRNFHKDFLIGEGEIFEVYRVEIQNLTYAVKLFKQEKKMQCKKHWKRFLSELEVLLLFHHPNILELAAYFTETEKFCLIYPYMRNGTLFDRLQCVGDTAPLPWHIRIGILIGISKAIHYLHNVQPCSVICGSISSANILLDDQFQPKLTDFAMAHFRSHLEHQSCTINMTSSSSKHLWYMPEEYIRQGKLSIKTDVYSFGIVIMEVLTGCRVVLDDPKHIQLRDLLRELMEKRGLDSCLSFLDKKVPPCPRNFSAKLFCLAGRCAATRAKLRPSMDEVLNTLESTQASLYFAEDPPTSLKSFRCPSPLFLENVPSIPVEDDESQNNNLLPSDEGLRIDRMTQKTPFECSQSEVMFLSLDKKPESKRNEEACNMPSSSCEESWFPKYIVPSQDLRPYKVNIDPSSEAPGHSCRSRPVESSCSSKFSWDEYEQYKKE
UniProt O14965, sequence (whole entry, looked up): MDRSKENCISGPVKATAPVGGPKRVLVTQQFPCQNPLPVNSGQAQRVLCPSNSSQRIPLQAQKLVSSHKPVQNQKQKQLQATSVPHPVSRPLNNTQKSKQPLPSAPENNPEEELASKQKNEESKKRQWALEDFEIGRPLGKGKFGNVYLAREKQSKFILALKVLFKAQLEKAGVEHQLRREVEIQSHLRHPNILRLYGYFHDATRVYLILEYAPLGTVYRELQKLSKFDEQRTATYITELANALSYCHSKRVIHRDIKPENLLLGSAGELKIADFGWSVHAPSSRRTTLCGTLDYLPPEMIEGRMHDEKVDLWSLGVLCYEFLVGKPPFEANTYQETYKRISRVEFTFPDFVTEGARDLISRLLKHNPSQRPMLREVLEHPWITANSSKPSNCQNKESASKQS
UniProt P07333, sequence (whole entry, looked up): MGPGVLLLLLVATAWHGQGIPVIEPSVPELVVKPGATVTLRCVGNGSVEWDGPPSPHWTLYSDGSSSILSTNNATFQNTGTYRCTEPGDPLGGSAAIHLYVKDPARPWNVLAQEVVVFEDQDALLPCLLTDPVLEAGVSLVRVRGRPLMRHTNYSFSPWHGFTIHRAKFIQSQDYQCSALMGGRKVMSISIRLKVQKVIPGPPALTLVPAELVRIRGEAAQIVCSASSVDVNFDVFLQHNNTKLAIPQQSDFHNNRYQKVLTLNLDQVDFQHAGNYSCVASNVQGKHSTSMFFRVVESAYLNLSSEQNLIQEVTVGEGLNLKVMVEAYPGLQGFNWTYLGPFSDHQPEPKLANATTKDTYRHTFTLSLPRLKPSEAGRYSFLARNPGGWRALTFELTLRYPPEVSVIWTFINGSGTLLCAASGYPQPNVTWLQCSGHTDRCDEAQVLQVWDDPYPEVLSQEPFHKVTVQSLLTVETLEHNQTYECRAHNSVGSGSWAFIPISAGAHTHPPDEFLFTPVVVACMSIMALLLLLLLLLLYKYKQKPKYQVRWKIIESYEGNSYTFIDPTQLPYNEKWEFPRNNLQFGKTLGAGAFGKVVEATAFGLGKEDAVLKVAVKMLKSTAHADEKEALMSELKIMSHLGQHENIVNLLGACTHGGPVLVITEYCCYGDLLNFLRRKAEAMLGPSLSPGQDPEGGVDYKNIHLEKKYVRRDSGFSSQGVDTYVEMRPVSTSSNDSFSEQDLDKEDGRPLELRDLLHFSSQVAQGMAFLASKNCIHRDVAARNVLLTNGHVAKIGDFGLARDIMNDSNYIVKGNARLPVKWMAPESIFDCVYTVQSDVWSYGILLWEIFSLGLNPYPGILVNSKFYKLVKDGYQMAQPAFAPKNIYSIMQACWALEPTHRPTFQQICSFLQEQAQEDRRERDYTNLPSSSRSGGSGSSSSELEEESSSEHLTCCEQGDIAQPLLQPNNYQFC

Series 1
Cell line: mouse MPNST tumor cells
Technique: high-content nuclear imaging
Item: cell number
Tested at: 10 µM
Time: 12 h
Setting: mean of 2 replicates
Reference: plate mean
Reading: higher = more cells
SMILES	nuclei count
C=CCN1CCCC1CNC(=O)c1cc2nn[nH]c2cc1OC (stereo not shown)	0.323 z-score
O=C(O)CCNc1cc(N2CCc3ccccc3CC2)nc(-c2cccnc2)n1	0.317 z-score
CC(C)(CO)n1cc(C(=O)c2cncc(NC(=O)Cc3ccc(Cl)cn3)c2)c2cnc(N)nc21	2.64 z-score
C#CCCCCCCCCCCCCCCCC(=O)O	-0.185 z-score
OCCOCCN1CCN(C2=Nc3ccccc3Sc3ccccc32)CC1	-1.1 z-score and 1.31 z-score
O=C(O)C[C@@]1(O)C[C@@H](CCCCCCc2ccc(Cl)cc2Cl)OC1=O	0.296 z-score
COc1ccc2c(c1)N(C[C@H](C)CN(C)C)c1ccccc1S2	-1.16 z-score
CC(=O)SCC(Cc1ccccc1)C(=O)NCC(=O)OCc1ccccc1 (stereo not shown)	-0.326 z-score
Cn1c(NC[C@@H](N)Cc2ccccc2)nc(-c2ccncc2)c(-c2ccc3ccccc3c2)c1=O	2.34 z-score
Cc1cc(NC(=O)Nc2ccc3c(ccn3C)c2)sn1	-0.501 z-score
CCN(CCNC(=O)Nc1ccccc1Br)c1cccc(C)c1	1.88 z-score
C[C@]12C=CC(=O)N[C@@H]1CC[C@@H]1[C@@H]2CC[C@]2(C)[C@@H](C(=O)Nc3cc(C(F)(F)F)ccc3C(F)(F)F)CC[C@@H]12	2.87 z-score
CC(=O)NO	0.744 z-score
CCCn1c(=O)[nH]c2nc(-c3ccc(S(=O)(=O)N4CCN(c5ccc(Cl)cc5)CC4)cc3)[nH]c2c1=O	2.15 z-score
c1ccc2[nH]c(-c3cscn3)nc2c1	-0.276 z-score and 0.153 z-score
COc1nc2sc(C(=O)NC3CC3)c(N)c2c(C)c1Cl	-0.514 z-score
CCCCCCCCOc1ccc(-c2noc([C@@H]3CCC[N+]3=C(N)N)n2)cc1C(F)(F)F	-1.57 z-score

Series 2
Target: Serine/threonine-protein kinase 26 (STK26, Homo sapiens, UniProt Q9P289)
UniProt Q9P289, sequence (whole entry, looked up): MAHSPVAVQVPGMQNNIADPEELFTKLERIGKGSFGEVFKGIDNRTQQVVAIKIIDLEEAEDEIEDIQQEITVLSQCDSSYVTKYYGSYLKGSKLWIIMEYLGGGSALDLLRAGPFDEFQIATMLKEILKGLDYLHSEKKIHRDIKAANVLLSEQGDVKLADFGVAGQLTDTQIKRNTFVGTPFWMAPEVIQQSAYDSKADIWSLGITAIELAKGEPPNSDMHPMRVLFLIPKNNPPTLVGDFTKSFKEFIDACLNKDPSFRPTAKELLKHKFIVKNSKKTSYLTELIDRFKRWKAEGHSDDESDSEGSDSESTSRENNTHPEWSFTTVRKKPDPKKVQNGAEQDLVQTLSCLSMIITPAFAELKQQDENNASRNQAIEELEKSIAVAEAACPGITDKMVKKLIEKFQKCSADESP
Effect on: enzyme activity
Mode: inhibitor
Tested at: 0.5 µM
Reference: control
Compound	remaining activity [%]
CN([C@@H](Cc1ccc(OS(=O)(=O)c2cccc3cnccc23)cc1)C(=O)N1CCN(c2ccccc2)CC1)S(=O)(=O)c1cccc2cnccc12	109
CCN(CC)CCNC(=O)c1c(C)[nH]c(/C=C2\C(=O)Nc3ccc(Cl)cc32)c1C	73.2
CCN(CC)C(=O)c1ccc(Nc2nc(OCC3CCCCC3)c3[nH]cnc3n2)cc1	84.9
O=C(NC(NC(=S)Nc1ccc(F)c([N+](=O)[O-])c1)C(Cl)(Cl)Cl)C(c1ccccc1)c1ccccc1 (stereo not shown)	89.3
N#Cc1c(NC(=O)c2cccc3ccccc23)sc2c1CCCC2	102
O=C1c2ccccc2-c2n[nH]c3cccc1c23	83.4
CCN(CC)CCNC(=O)c1c(C)[nH]c(/C=C2\C(=O)Nc3ccc(F)cc32)c1C	110
C[C@@H]1CCN(C(=O)CC#N)C[C@@H]1N(C)c1ncnc2[nH]ccc12	105
CCOc1nc(NC(=O)Cc2cc(OC)ccc2OC)cc(N)c1C#N	104
O=c1cc(-c2cccc3c2Sc2ccccc2S3)oc(N2CCOCC2)c1	90.4
Ic1cccc(CSc2nnc(-c3ccncc3)o2)c1	103
Cc1cn(-c2cc(NC(=O)c3ccc(C)c(Nc4nccc(-c5cccnc5)n4)c3)cc(C(F)(F)F)c2)cn1	111
c1ccc(-c2[nH]ncc2-c2ccnc3ccccc23)nc1	83.4
COc1cc2c(cc1OC)-c1[nH]nc(Nc3cccc(F)c3)c1C2	97
c1ccc(-c2cnc(Nc3ccc(OCCN4CCCC4)cc3)s2)cc1	101
COc1cc2ncnc(Nc3cccc(Cl)c3)c2cc1OC	108
O=C(Nc1cccc(Nc2nccc(Nc3cccc(C(F)(F)F)c3)n2)c1)C1CC1	84.4
CN(C)C[C@H]1CCn2c(c(C3=C(c4cn(C)c5ccccc45)C(=O)NC3=O)c3ccccc32)C1	78
N#C/C(=C\c1ccc(O)c(O)c1)C(=O)NCc1ccccc1	103
Cc1nc2cc3nc(-c4cccs4)cnc3cc2n1C	99.3
COc1cc2ncnc(Nc3ccc(O)c(Br)c3)c2cc1OC	90.2
Cc1cc2ncc(-c3ccccc3)nc2cc1C	97.6
Nc1cccc(-c2cc3c(Oc4cccc(O)c4)ncnc3[nH]2)c1	83.8
O=C1C(Cl)=C(N2C(=O)CCC2=O)C(=O)c2ccccc21	98.3
Cn1nc2c3c(cccc31)C(=O)c1ccccc1-2	108

Series 3
Cell line: Huh-7
Tested at: 10 µM
Time: 24 h
SMILES	viability [%]
CCn1cc(C(=O)O)c(=O)c2ccc(C)nc21	97.9
CO/N=C1\CN(c2nc3c(cc2F)c(=O)c(C(=O)O)cn3C2CC2)CC1CN (stereo not shown)	92
CN(CCOc1ccc(CC2SC(=O)NC2=O)cc1)c1ccccn1 (stereo not shown)	94.6
CC(C)(Oc1ccc(CCNC(=O)c2ccc(Cl)cc2)cc1)C(=O)O	97.6
Cc1onc(-c2c(Cl)cccc2Cl)c1C(=O)N[C@@H]1C(=O)N2[C@@H]1SC(C)(C)[C@@H]2C(=O)O	96.3
NCCS	99.7
CC(C(=O)O)c1ccc(-c2ccccc2)c(F)c1 (stereo not shown)	98.8
CCN(CC)CCNC(=O)c1cc(Cl)c(N)cc1OC	97.2
O=C(O)Cc1ccccc1Nc1c(Cl)cccc1Cl	99.9
CCOC(=O)[C@@](C)(N)Cc1ccc(O)c(O)c1	96.4
Nc1ccc(S(=O)(=O)Nc2ncccn2)cc1	104
NC(=O)c1cc[n+](CC2=C(C(=O)O)N3C(=O)[C@@H](NC(=O)[C@@H](c4ccccc4)S(=O)(=O)[O-])[C@H]3SC2)cc1	98.2

Series 4
SMILES: CC1=C(C#N)[C@@H](c2ccc3[nH]nc(C)c3c2)C(C#N)=C(c2ccc(Cl)cc2)N1
Technique: competition with immobilised ligand
Tested at: 1 µM
target	test	remaining binding [%]
FLT3 (Homo sapiens, UniProt P36888)	cell-free assay	100
PIK3C3 (Homo sapiens, UniProt Q8NEB9)	cell-free assay	100
BLK (Homo sapiens, UniProt P51451)	cell-free assay	100
FLT3 (Homo sapiens, UniProt P36888, D835Y)	cell-free assay	93.5
Aurora kinase A (AURKA, Homo sapiens, UniProt O14965)	cell-free assay	100
Myosin-IIIa (MYO3A, Homo sapiens, UniProt Q8NEV4)	binding	100
FLT3 (Homo sapiens, UniProt P36888, K663Q)	cell-free assay	100
EPHB2 (Homo sapiens, UniProt P29323)	cell-free assay	100
NEK7 (Homo sapiens, UniProt Q8TDX7)	cell-free assay	87.4
VRK2 (Homo sapiens, UniProt Q86Y07)	cell-free assay	100
PRKX (Homo sapiens, UniProt P51817)	cell-free assay	100
Macrophage colony-stimulating factor 1 receptor, autoinhibited (CSF1R, Homo sapiens, UniProt P07333)	cell-free assay	100
KDR (Homo sapiens, UniProt P35968)	cell-free assay	96.3
Myosin-IIIb (MYO3B, Homo sapiens, UniProt Q8WXR4)	binding	78
CDKL2 (Homo sapiens, UniProt Q92772)	binding	97.9
ERBB4 (Homo sapiens, UniProt Q15303)	cell-free assay	100
CAMK2B (Homo sapiens, UniProt Q13554)	cell-free assay	100
Tyrosine-protein kinase ABL1, phosphorylated (ABL1, Homo sapiens, UniProt P00519, Y253F)	cell-free assay	100
ACVR2A (Homo sapiens, UniProt P27037)	cell-free assay	100
CLK2 (Homo sapiens, UniProt P49760)	cell-free assay	100
CDK14 (Homo sapiens, UniProt O94921)	cell-free assay	94.4
IRAK3 (Homo sapiens, UniProt Q9Y616)	cell-free assay	96.4
HIPK3 (Homo sapiens, UniProt Q9H422)	cell-free assay	89.5
CAMK1 (Homo sapiens, UniProt Q14012)	cell-free assay	100
ABL2 (Homo sapiens, UniProt P42684)	cell-free assay	100
